Experimental data of several laboratories.
A part holds a random share of what one study measured.

Study 1 — method: aptamer microarray, sandwich; molecule type: DNA with 2'F-ANA; sample: in vitro; tested at: 200 nM; with: Cy3 exosite-II aptamer, 400 nM; reading: higher = stronger binding; measurement: mean fluorescence intensity; oligonucleotide: GGTTGGTGTGGTTGG
Target: Prothrombin, mature alpha-thrombin (F2, Homo sapiens, UniProt P00734)
Setting: whole 15-mer aptamer, many near background
2'F-ANA at 1 4 5 6 7 8 10 11 12 14 15: 52.1 a.u.
2'F-ANA at 4 5 8 9 10 12 14 15: 70 a.u.
2'F-ANA at 1 2 3 5 7 9 11 13 15: 64.4 a.u.
2'F-ANA at 2 5 6 12 13 14 15: 68.9 a.u.
2'F-ANA at 5 6 7 12 13 15: 107 a.u.
2'F-ANA at 5 6 9 10 11 13 14: 44.2 a.u.
2'F-ANA at 4 5 9 11 12 14: 46 a.u.
2'F-ANA at 2 3 4 5 6 7 8 10 11 12 13: 57 a.u.

Study 2 — method: protein-binding microarray; molecule type: double-stranded DNA, one strand shown; sample: in vitro; tested at: 250 nM; setting: 60-bp whole probe; with: salmon DNA 0.4 mg/ml; baseline: random background probes; reading: higher = stronger binding; measurement: log fluorescence; constant ends, left off below: GCCTAGCAC … GTCTTGATTCGCTTGACGCTGCTG
Target: Interferon regulatory factor 5, full length, phosphomimetic (IRF5, Homo sapiens, UniProt Q13568-2, residues 1-514, K96S/S451D/S453D/S456D/S462D)
TACGGTCTCGGTTTCGGGACGTGCTAG: 3.65 z-score
GACGGACTAGGTCTCGGGACGTGCTAG: -0.528 z-score
GCCGATTTCGGGTTTCGAGACGTGCTA: 6.22 z-score
GACGATATCGGGTATCCAGACGTGCTA: 1.79 z-score
GACGATTTTAGTCTCGAGACGTGCTAG: 0.216 z-score
GGGCCTTGCATGTTTTTGACAGTGCTA: -0.664 z-score
CTCTTGATCCCGAACTGGCCGTGCTAG: -0.116 z-score
TTGGAACTGAGTATCGATTAGTGCTAG: 6.27 z-score
TTAGAACTGGGTCTCGGTTAGTGCTAG: 0.11 z-score
TCATGATCCATTTTGGTACTGTGCTAG: 0.388 z-score

Study 3 — method: protein binding microarray; molecule type: double-stranded DNA, one strand shown; sample: in vitro; tested at: not given; baseline: not given; reading: higher = stronger binding; measurement: E-score
Target: Histone acetyltransferase KAT6A, both winged helices, GST fusion (KAT6A, Homo sapiens, UniProt Q92794, residues 1-181)
Setting: 8-mer, flanks averaged, mean of 2 arrays, mostly near background
Residues (chain): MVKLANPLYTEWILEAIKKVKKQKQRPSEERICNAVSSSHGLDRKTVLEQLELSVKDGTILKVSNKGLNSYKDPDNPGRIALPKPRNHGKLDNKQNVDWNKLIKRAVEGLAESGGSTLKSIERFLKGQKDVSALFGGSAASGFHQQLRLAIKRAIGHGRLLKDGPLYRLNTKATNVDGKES
CTGAAGTA: -0.0725
TACGAGTA: 0.0372
CGTAGGTC: -0.0162
CTTCCATC: -0.0967
AAGTCCTG: -0.271
CGAATACC: -0.0521
AGTGGAGG: -0.141
GTACACAA: 0.0268
AAGCTGCC: -0.0374
ACAGGAAG: -0.074

Further values, each from its own experiment
PhoQ, residues 284 288 289 292 302 303 SQSLSM — fold induction (PhoP, residues 12 14 15 18 19 NYFTV (Escherichia coli, UniProt P23836); Sort-seq, measured: YFP reporter; E. coli; PhoQ-PhoP variant library, with: 10 µM Mg2+; baseline: high Mg2+ state, higher = stronger signaling): 12.7

Excerpt of the above (study 3):
CGTAGGTC: -0.0162
GTACACAA: 0.0268
